Results of several laboratories.
Lines come from different studies, so protocols differ. ± gives the spread as reported.

Compound	assay	system	conditions	measurement	result
COc1cc2c(Oc3ccc4[nH]c(C)cc4c3F)ccnc2cc1OCC1(N)CC1		paediatric recurrent refractory sarcoma	8 mg	grade 3 Hypothyroidism	0%
CC1(C)C(/C=C(\Cl)C(F)(F)F)C1C(=O)OC(C#N)c1cccc(Oc2ccccc2)c1 (stereo not drawn)	item: CYP2C9	human, age 5 years		enzyme contribution to clearance	0.46%
COc1ccnc(C(=O)N[C@H]2COC(=O)[C@H](Cc3ccccc3)[C@@H](OC(=O)C(C)C)[C@H](C)OC2=O)c1OCOC(=O)C(C)C		rats, mice and rabbits, faeces	oral, dose not given	excretion	51 to 91%
CC(=O)c1c(C)c2cnc(Nc3ccc(C4CCN(CCS(C)(=O)=O)CC4)cn3)nc2n(C2CCCC2)c1=O		human, plasma	oral, 50 mg twice daily, day 21, multiple doses, together with: letrozole	Cmax	114 ng/mL
CCCSc1ccc2nc(NC(=O)OC)[nH]c2c1		mouse, blood	oral, 50 mg/kg, tolerability, mean	mean corpuscular volume	45.5 fL
COc1ncccc1-c1cnn2ccc(N3CCN(C(=O)OC(C)C)CC3)nc12		rat, STZ model, brain	oral, 1 mg/kg, 240 min	drug concentration	420 nM
Cn1cc(-c2nc(N[C@@H]3CCCC[C@@H]3N)c(F)c3c2C(=O)NC3)cn1	item: Gastrointestinal haemorrhage	patients with relapsed or refractory AML	oral, 60 mg twice daily	hemorrhagic adverse events	13%
CO[C@H]1C[C@@H]2CC[C@@H](C)[C@@](O)(O2)C(=O)C(=O)N2CCCC[C@H]2C(=O)O[C@H]([C@H](C)C[C@@H]2CC[C@@H](OC(=O)NCCOCCOCCOCCOCCOCCOCCOCCOCCC(=O)N3CCc4cc(Cn5nc(-c6ccc7oc(N)nc7c6)c6c(N)ncnc65)ccc4C3)[C@H](OC)C2)C[C@@H](O)[C@H](C)/C=C(\C)[C@@H](O)[C@@H](OC)C(=O)[C@H](C)C[C@H](C)/C=C/C=C/C=C/1C	phase 1 dose escalation	advanced solid tumour patients	intravenous, 6 mg weekly, any grade	deaths due to TRAEs	0%
Oc1ccc(CSCc2ccc(O)cc2)cc1		ICR mice male	oral, 6000 mg/kg, day 8, acute toxicity	body weight	35.9 ± 1.87 g
CCC[C@@](N)(CO)CCc1ccc(OCCCCCC(C)C)cc1		hound dogs, male	intravenous, 0.25 mg/kg, geometric mean	AUC(0-inf)	0.48 µM·h
CN1CCN(S(=O)(=O)c2cc([N+](=O)[O-])ccc2N(CCOS(C)(=O)=O)CCOS(C)(=O)=O)CC1		naive female NSG mice, plasma	intraperitoneal, 25 mg/kg	elimination rate constant	0.000547 s⁻¹
CC(C)[C@@H](CN1CC[C@@](C)(c2cccc(O)c2)[C@@H](C)C1)NC(=O)[C@@]1(C)Cc2ccc(O)cc2CN1		rat, plasma	intraperitoneal, 5 mg/kg	AUCtotal	802 ng·h/mL
